# Assay results pooled from the literature.
# Each numbered part is a random draw from the data of one study; scales do not carry over between parts.

# Sample 1
# Target: Myc proto-oncogene protein, bHLH-zipper, MAX partner unstated (MYC, Homo sapiens, UniProt P01106, residues 368-449)
# Chain of UniProt P01106 (368-449, looked up): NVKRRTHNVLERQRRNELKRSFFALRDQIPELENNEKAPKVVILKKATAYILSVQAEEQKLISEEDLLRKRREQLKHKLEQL
# Method: protein-binding microarray
# Form: double-stranded DNA, one strand shown
# Medium: in vitro
# Tested at: not given
# Setting: k-mer, scored over probes, only values ≥0.25
# Direction: higher = stronger binding
Sequence,E-score
CATGGCAA,0.402
GCCACGAC,0.292
CAGACCCC,0.256
CAACATGC,0.369
AAGCATGG,0.415
CGAACACG,0.342
ATGGTGCA,0.326
CATCATGC,0.272
ACATGCAC,0.389
CATGCGAA,0.267
TCCACGCA,0.373
CACGGGGC,0.343
CCACCTGG,0.365
ACGAGGGC,0.364
CCCACTCC,0.255
GCGCCACC,0.299

# Sample 2
# Target: RING finger protein unkempt homolog, zinc fingers 1-6, SBP tag (UNK, Homo sapiens, UniProt Q9C0B0, residues 30-357)
# Chain of UniProt Q9C0B0 (30-357, looked up): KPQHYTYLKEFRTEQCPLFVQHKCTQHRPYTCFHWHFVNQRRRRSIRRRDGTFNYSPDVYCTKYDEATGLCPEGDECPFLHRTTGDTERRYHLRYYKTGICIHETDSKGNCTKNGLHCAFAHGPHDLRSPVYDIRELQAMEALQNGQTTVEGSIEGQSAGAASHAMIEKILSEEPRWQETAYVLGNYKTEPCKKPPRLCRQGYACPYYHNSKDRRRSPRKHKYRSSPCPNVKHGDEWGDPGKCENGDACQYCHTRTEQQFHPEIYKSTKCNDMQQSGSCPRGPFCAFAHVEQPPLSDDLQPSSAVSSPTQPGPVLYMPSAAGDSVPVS
# Method: RNA Bind-n-Seq
# Form: RNA
# Medium: in vitro
# Tested at: 100 nM
# Setting: RNA with constant flanks, vertebrate orthologous sites, ends assumed
# Relative to: input RNA pool
# Direction: higher = stronger binding
# Constant ends, left off below: GGGAGUUCUACAGUCCGACGAUC … CAACAGAGGAUUGAGCAUCA
Sequence,bound/input enrichment
UUCAGGCUCAACUGACUGUUUCACAGCAUUCCUUACACAGCUAUUUAACAAGUACAGGUGGAGUUAAUUUUCAGGAUACGUCUAGGCACUCAGCAUUAUCUUGCAGCCCAGUUGAAGAUG,0.601 ratio
UUGUUUUGUACGGGGCAUUCUCUGUACUAAUUUGUUGUGGUUAUAAAACAACUAGCAAAACAGCUUACAUUUGUAUUUAUUUUCUAUUCCAUACCUUUCUGCCCCAUGUUUUUCCUCCUC,0.534 ratio
UUCACUACCUGACCAGAGUCGAAGUGACAGAAUUUGAAGACAUAAAAUCAGGAUACAGAAUAGAUUUUGAAGCGCCUUUUGUAACUGAGUUCGGUUCUGCGGGUAGAGGUAGGUGCCUGU,0.183 ratio
GCAACAAUGAAAAAGCCCUUCUCCCAGCCCCUUUUUCACUAGGAGAUACAAACAUUACCAUAGAAGAGCAAUUAAACUCAAUAAAUUUAUCUUUUCAGGAUGAUCCAGACUCCAGUACAG,1.46 ratio
CACGCUUUAUUGAUUUCUAAUUUAUUUCACUUUGACUAUGGUUUAUGAUUUGCUAUACCAAAUGGUGGUGGUAAAAACCUUUACCUAUAAUGGGCGUUGCUAUAGUAACAUGUGUUUGUU,0.963 ratio
UAUUUUCUUAUUUUAGGUAUCAUUGCCCAGUGCCUAAGAUCUUUUACGUUCAGCUCACUGUAGGAAAUAAUGAAUUUUUUGGGGAAGGAAAGACUCGACAAGCUGCUAGACACAAUGCUG,1.4 ratio
AAUUUUUUAAAGUUUUUUAAUUUAAUUUUUCCUUUCGGGGGUAAAGUUUGCUCUACCAAAUAGUGAUCGUAACAAAUUGAUCUGUUUUGGAUGUUGCUAUAGUGACAUGCAGUUAUACAU,0.464 ratio
CUUAAUUAGAAGGUAGUGUAUGUUUCAUAAAGAAAAGUCUUUAUAAUUUUGUUUGUCAUAUAGUAUUUUGGAAUUUGUAUAAUGAGGACGUUUAGAAGCCAUAUCAGUGGCUUUUUUUAA,0.503 ratio
UUGGGACCAGCUCUUCAAAUAGGAAUAGUAGUAAAAAAAGUAAGCAAAAUGAUAUUUGUAUAGAAAAAACAGAAGUUAAAUCAUGCAAGGCAAAUGCUGCCAGUGUUCCAGGCCCUAAAG,1.05 ratio
CUGUUGUGUGAAAUAUGUCUACCAAGAGAAGUAUCACACCAUAAACAUUGUCAAAUAAUUUAGCUACAAUCUUCUUAGAUACCAAAUUAUAUGUCAAGCAUUUAAAGUGAGUUUGAGAUG,0.42 ratio
AGUAUCCCAGUUGUACCGUGUUGGGUUGGCAUUGUACAGAAAUCAACAGCCAUAUUGGUCUAGAAACAUUAAACAUAAUUUUUUCCAUUUGUACAGGGGUAACGCACUGUAUUAAAUAUG,1.37 ratio

# Sample 3
# Target: Interferon regulatory factor 5, full length, phosphomimetic (IRF5, Homo sapiens, UniProt Q13568-2, residues 1-514, S451D/S453D/S456D/S462D)
# Method: protein-binding microarray
# Form: double-stranded DNA, one strand shown
# Medium: in vitro
# Tested at: 940 nM top
# Setting: 60-bp whole probe
# Together with: salmon DNA 0.4 mg/ml
# Relative to: random background probes
# Direction: higher = stronger binding
# Constant ends, left off below: GCCTAGCAC … GTCTTGATTCGCTTGACGCTGCTG
Sequence,fitted relative affinity
TTAGGTCTCCGACTGGGTTAGTGCTAG,-0.505 z-score
GACGATTTCAGTTTCGGGACGTGCTAG,5.56 z-score
TATTCTCTACTTGTGTCTAGGTGCTAG,2.21 z-score
TCATCTCTCTGTGACACACTGTGCTAG,1.24 z-score
TCACCCCTCCCCCTCAGACTGTGCTAG,0.354 z-score
GACGGTTTCGTTATCCTGACGTGCTAG,8.8 z-score
TCACCATCCTGTATGGAACTGTGCTAG,-0.171 z-score
TTAGATATGGGGTTTCGATTAGTGCTA,5.36 z-score
GACGATCTTAGTCTCGAGACGTGCTAG,1.16 z-score
TTAGGTTTAGGGTATCGGTTAGTGCTA,2.31 z-score
TCATTTTTCATTATTGTACTGTGCTAG,1.43 z-score
TCATTTTTTTTTTCATCATTGTGCTAG,2.16 z-score
GACGTACTGGGGACTGGGGACGTGCTA,0.238 z-score
GACGGACTGGCGTATCGGGACGTGCTA,-0.341 z-score
TCATTTTGCACTCTCTAACTGTGCTAG,1.11 z-score
TTAGGACTGGGGTCTCGGTTAGTGCTA,0.946 z-score
ACCATTCTCGGGACTCACCTGGTGCTA,2.61 z-score
TTAGGTATTGGACTGGGTTAGTGCTAG,-0.0322 z-score
TCAAATTTAGAAAATGGAACTGTGCTA,-0.422 z-score

# Sample 4
# Target: RNA binding protein fox-1 homolog 2, RRM domain, GST-SBP tag (RBFOX2, Homo sapiens, UniProt O43251-10, residues 100-194)
# Method: RNA Bind-n-Seq
# Form: RNA
# Medium: in vitro
# Tested at: 365 nM
# Setting: natural RNA segment, single round, ends assumed
# Relative to: no-protein control
# Direction: higher = stronger binding
# Constant ends, left off below: GGGAGUUCUACAGUCCGACGAUC … UGGAAUUCUCGGGUGCCAA
# Construct (chain): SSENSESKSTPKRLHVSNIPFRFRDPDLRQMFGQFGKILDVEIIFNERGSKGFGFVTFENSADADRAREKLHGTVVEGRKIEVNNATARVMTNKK
Sequence,RBNS enrichment (R)
UUGGGAGGAGUGAGCAGGCCCCGGGGGAGGGGGAUGAGCGCAGUUUGCUCGCUUUCCUCCCCUGCCGGCCCCCUCCGCCCCCACACACACUCGGGACGUCUUCAUUGAAG,0.18
GGGAAAGGGCUUUAUUCUUAUAAGAGUCUGGCCUGUCUUAACUAGAAGACGGGUAGGAAGGAUACUAGGUAGGCAGCGUUGCUGAACAAUCUAAGUUGUGGUUCUUAGCC,0.234
UCGCAGAGGCGGUGGGAAGGCUGUCAGAGCCUGUGUUCUGAUUUUUCAGAAAACAGGUCUCUCCUUUUGUAAAUCUGGAAUGAUGUAAGAAAAUGCUUUUGGUUACUGAU,1.18
CAUGUAAACACAGUACCUCAGUUUUCUGUCCACAGCUGCAGUCGCUCUGUCCCUCGUGCUUCACUGUGGGCAGCCAGGGACAAGCUUCUGAAAGCAGUGUGAUACCCAAG,0.32
UCAAGAAUAUUUGAUUUCCUAUUGUGUGCAUGGGAGGUUUACAAAAGACAGACUGUCCCUAUGCUUGUGCAGCUUACAAUCUAUUUAACUAUUAGAGGCCCUGUGAGAUG,1.79
AGGACGCCAACAUGAGACCUGUAAUAAAAUAUGUAAUGGGGUUGAAAGCUGGGGAGGAGGAUCUACUGCUGUACAGCUAAUAAAUCAUAACGGAUUAACAAGUGCUCCAA,0.488
UGCUGAGCCCUCGCAUCUGGGUGGCGGAAUUGCCUGCGGGGUUUUGCCCUUGGUUUACUGAGGGGGGUCUUGGUUGCUGCUGAAGCCCCCCACCCCUUCUAAAGUGCAAU,3.17
AUUUUGCAUUUAAAAUGUAAUUACUCUUAGUAUUGUACAGCCCUAUAAUGUAUGAGAACUAGUUUCACAUCCUUUGAAACUAAUCUCUUUCAUUGGGGAGGAUACAACUU,0.239
CAAGCUUUUGUGUUUAUUAUCCUCAUUUUUACUGAACAUUGUUAGUUUUGGGGUAAUGGAAACCCACUUUUUCAUUGUAAUGACUUUGGGGGCUUUUGUUAGUAAGGGUG,0.33
UAAAAGCCAGAGCAUUAAGCUUACACAGACUACUUUCUAUGCAAGACAGAGAUAUGGACUAGGUUACAGGAAACGUGCACCGUUGGCUCCACAGACAAGAAGUGCAUUGC,0.222
GCUGUCAUCCCCUCCCCCAACCUUGGCCACUUGAGUUUGUCCUCCAAGGGUAGGUGUCUCAUUUGUUCUGGCCCCUUGGAUUUAAAAAUAAAAUUAAUUUCCUGUUGAUA,0.877
CCUUGUUUUUCACAUUGGGAACCCUAACAUUACCAGGGAUGCUACUUACCACAAUUUGUAACCCUGAAUCUCUCCUGUGCUCUGGUGUUCAGAAAGCUGAGACAGCUGGG,0.271

# Sample 5
# Target: Sal-like protein 4, full length isoform A (SALL4, Homo sapiens, UniProt Q9UJQ4, residues 1-1053)
# Chain of UniProt Q9UJQ4 (whole entry, looked up): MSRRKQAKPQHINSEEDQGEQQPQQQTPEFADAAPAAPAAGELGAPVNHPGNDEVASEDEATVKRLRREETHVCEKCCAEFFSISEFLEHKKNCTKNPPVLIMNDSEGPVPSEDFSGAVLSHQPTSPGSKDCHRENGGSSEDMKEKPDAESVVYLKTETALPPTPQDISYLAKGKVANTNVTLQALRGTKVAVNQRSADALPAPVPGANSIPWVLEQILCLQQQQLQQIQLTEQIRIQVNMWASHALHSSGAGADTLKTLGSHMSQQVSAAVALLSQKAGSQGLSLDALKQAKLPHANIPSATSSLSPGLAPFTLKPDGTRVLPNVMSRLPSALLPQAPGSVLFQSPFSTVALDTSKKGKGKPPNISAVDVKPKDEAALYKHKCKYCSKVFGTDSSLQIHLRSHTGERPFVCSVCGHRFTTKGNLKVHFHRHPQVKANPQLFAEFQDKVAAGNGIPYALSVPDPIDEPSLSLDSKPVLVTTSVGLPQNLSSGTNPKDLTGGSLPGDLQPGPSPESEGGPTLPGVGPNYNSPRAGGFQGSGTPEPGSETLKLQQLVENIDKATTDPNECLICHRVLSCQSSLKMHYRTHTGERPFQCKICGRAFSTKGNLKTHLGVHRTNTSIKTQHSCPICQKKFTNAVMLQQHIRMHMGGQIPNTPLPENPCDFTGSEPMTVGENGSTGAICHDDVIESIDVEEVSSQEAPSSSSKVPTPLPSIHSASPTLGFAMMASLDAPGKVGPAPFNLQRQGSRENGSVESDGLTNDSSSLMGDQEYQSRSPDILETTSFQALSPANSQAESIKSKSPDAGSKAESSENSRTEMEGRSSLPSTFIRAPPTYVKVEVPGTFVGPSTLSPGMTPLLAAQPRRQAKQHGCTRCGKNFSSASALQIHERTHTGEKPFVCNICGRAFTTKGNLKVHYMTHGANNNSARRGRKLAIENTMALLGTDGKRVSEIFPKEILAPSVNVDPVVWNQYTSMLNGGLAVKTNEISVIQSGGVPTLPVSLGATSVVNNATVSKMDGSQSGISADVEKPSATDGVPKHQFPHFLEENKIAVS
# Method: universal PBM
# Form: double-stranded DNA, one strand shown
# Medium: in vitro
# Tested at: 600 nM
# Setting: 8-mer, flanks averaged, mean of replicates
# Direction: higher = stronger binding
Sequence,E-score
CCTATTCC,-0.00102
ACAACCCA,-0.0453
CGAATCAG,-0.0772
CGAGAGAG,-0.095
AAAGACAT,0.0863
GCAGACCA,-0.298
CGGTTTAC,-0.104
AGCATGCA,-0.09
CACAGAGC,-0.158
AAGCAACC,-0.0495
ATTAATCC,0.295
CCCGCTGC,-0.242
GGGCTTCA,-0.207
GAACTTAC,-0.038
GGGGAACA,-0.218
TATGGGCA,0.0958
CACAGGAA,0.0667
AACCTGAA,-0.0264
GCCAATAC,-0.00307
GCCCACTA,-0.155
AGGCGGAC,-0.243
ACCTATAT,0.313

# Sample 6
# Target: Histone acetyltransferase KAT6A, winged helix 2, GST fusion (KAT6A, Homo sapiens, UniProt Q92794, residues 85-181)
# Method: protein binding microarray
# Form: double-stranded DNA, one strand shown
# Medium: in vitro
# Tested at: not given
# Setting: 8-mer, flanks averaged, mean of 2 arrays, mostly near background
# Relative to: not given
# Direction: higher = stronger binding
# Construct (chain): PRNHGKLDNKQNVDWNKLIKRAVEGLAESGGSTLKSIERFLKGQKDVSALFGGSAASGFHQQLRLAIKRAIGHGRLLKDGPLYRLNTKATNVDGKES
Sequence,E-score
GACGAGAA,0.142
ATGCTTTC,0.138
CAATAGTG,-0.0948
ACGTGGGA,-0.144
GAGATGAC,-0.206
AATAAAGT,0.0181
GAGTTTAC,0.0257
GGCCTGAC,0.0195
ATCCACGA,0.0642
ACAGCGGA,0.0518
CACATGAG,-0.155
CCCGAGAC,0.123
AATTACGG,-0.0511
GCGCGGAA,0.0727
AGAAAGTA,0.117
AACAGGTT,-0.133
TGAGCAAA,0.0902

# Excerpt of the above (sample 1):
Sequence,E-score
ATGGTGCA,0.326
CATCATGC,0.272
ACATGCAC,0.389
CATGCGAA,0.267
TCCACGCA,0.373
CACGGGGC,0.343
CCACCTGG,0.365
ACGAGGGC,0.364
CCCACTCC,0.255
GCGCCACC,0.299
